Assay results of several laboratories.
Protocols differ between the studies behind these lines. ± gives the spread as reported.
Organism: Salmonella typhimurium

OC(CCN1CC=C(c2ccc(F)cc2)CC1)c1ccc(F)c2ccccc12 (stereo not drawn)  induction factor (genotoxicity, SOS/umu test; TA1535/pSK1002; 0.016 mg/mL, 4 h, without S9, lower range): 0.9
COCCN(CCOC)N=O  revertant colonies per plate (mutagenicity, Ames plate incorporation; TA100; 2500 µg/plate, 3 d, without S9, methanol): 146 ± 16
CC(=O)N1CCC(C(=O)N2CCN3C(=O)c4cc(-c5ccccc5)ccc4NC(=O)C3C2)CC1 (stereo not drawn)  revertants per plate (TA100; 158 µg/plate, with rat liver S9): 108
CC(C)N(C)N=O  revertant colonies per plate (mutagenicity, Ames plate incorporation; TA100; 5000 µg/plate, 3 d, without S9, methanol): 178 ± 5
O=[N+]([O-])c1ccc(N2CCC(NCCC(O)c3ccc(F)c4ccccc34)CC2)c(C(F)(F)F)c1 (stereo not drawn)  survival (SOS/umu test; TA1535/pSK1002; 0.002 mg/mL, 4 h, without S9, lower range): 102%
COc1cccc(-c2n[nH]c(SCc3ccccn3)n2)c1OC  revertant colonies per plate (Ames test, plate incorporation; TA100; 0.016 mg/plate, without S9): 106
O=NN1CCN(C2CCCC2)CC1  revertant colonies per plate (mutagenicity, Ames plate incorporation; TA100; 150 µg/plate, 3 d, without S9, methanol): 137 ± 18
N#C[C@@]1(n2ccc(N)nc2=O)O[C@H](CO)[C@@H](O)[C@H]1O  viability (TA100; 25 µM, without S9; relative to: control): 93%
O=[N+]([O-])c1ccc(N2CCN(CCC(O)c3ccc(F)cc3)CC2)c(C(F)(F)F)c1 (stereo not drawn)  survival (SOS/umu test; TA1535/pSK1002; 0.004 mg/mL, 4 h, without S9, lower range): 123%
Cc1cc(C(=O)NC(C)(C)COc2cccc3c2C(N)=NS(=O)(=O)N3)cc(C)n1  revertant ratio (Ames test, initial; TA100; 50.0 µg/plate; relative to: solvent control): 1.1
O=[N+]([O-])c1ccc(NC2CCNCC2)c(C(F)(F)F)c1  induction factor (genotoxicity, SOS/umu test; TA1535/pSK1002; 1 mg/mL, 4 h, without S9, full range): 2.3
CNC(=O)c1c(N(C)N=O)ncn1C  revertant colonies per plate (mutagenicity, Ames plate incorporation; TA98; 5000 µg/plate, without S9, methanol): 33.3 ± 15

Some of these lines once more:
O=NN1CCN(C2CCCC2)CC1  revertant colonies per plate (mutagenicity, Ames plate incorporation; TA100; 150 µg/plate, 3 d, without S9, methanol): 137 ± 18
N#C[C@@]1(n2ccc(N)nc2=O)O[C@H](CO)[C@@H](O)[C@H]1O  viability (TA100; 25 µM, without S9; relative to: control): 93%
